Published values gathered from unrelated publications.
Numbered parts are unrelated; each lists some results of a single study. Positions count from the first letter of the parent shown.
UniProt Q16763, sequence (whole entry, looked up): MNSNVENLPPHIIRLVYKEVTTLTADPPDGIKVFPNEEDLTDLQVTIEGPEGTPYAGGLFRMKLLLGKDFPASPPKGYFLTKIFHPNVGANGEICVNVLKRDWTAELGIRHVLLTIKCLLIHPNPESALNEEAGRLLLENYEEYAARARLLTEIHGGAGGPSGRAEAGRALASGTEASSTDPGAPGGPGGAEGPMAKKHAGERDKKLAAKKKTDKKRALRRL
UniProt O00762, sequence (whole entry, looked up): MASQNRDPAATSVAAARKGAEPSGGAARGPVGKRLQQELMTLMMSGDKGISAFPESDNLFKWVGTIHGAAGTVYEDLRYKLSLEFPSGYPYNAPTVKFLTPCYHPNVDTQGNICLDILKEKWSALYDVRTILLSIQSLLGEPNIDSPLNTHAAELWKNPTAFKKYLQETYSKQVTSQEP
UniProt Q8N2K1, sequence (whole entry, looked up): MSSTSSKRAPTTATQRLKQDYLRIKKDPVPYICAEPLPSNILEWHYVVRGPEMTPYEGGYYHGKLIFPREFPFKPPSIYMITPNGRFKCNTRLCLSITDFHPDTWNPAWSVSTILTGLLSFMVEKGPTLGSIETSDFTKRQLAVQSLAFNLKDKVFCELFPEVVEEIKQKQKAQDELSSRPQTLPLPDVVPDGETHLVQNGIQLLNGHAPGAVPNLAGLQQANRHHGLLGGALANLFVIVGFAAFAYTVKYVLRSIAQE
UniProt Q712K3, sequence (whole entry, looked up): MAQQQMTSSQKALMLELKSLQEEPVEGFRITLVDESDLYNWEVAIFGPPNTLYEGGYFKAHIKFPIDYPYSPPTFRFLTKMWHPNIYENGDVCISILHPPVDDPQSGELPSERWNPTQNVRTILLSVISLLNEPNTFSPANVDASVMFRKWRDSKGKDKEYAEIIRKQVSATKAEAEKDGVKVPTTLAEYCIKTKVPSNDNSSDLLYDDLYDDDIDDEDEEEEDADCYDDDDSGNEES
UniProt Q969T4, sequence (whole entry, looked up): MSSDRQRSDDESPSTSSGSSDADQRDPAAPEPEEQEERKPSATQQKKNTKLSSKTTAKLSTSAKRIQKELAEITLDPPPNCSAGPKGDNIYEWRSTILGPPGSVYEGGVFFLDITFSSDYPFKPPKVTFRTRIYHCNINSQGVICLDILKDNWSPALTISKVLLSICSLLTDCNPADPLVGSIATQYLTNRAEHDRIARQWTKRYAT
UniProt Q9C0C9, sequence (whole entry, looked up): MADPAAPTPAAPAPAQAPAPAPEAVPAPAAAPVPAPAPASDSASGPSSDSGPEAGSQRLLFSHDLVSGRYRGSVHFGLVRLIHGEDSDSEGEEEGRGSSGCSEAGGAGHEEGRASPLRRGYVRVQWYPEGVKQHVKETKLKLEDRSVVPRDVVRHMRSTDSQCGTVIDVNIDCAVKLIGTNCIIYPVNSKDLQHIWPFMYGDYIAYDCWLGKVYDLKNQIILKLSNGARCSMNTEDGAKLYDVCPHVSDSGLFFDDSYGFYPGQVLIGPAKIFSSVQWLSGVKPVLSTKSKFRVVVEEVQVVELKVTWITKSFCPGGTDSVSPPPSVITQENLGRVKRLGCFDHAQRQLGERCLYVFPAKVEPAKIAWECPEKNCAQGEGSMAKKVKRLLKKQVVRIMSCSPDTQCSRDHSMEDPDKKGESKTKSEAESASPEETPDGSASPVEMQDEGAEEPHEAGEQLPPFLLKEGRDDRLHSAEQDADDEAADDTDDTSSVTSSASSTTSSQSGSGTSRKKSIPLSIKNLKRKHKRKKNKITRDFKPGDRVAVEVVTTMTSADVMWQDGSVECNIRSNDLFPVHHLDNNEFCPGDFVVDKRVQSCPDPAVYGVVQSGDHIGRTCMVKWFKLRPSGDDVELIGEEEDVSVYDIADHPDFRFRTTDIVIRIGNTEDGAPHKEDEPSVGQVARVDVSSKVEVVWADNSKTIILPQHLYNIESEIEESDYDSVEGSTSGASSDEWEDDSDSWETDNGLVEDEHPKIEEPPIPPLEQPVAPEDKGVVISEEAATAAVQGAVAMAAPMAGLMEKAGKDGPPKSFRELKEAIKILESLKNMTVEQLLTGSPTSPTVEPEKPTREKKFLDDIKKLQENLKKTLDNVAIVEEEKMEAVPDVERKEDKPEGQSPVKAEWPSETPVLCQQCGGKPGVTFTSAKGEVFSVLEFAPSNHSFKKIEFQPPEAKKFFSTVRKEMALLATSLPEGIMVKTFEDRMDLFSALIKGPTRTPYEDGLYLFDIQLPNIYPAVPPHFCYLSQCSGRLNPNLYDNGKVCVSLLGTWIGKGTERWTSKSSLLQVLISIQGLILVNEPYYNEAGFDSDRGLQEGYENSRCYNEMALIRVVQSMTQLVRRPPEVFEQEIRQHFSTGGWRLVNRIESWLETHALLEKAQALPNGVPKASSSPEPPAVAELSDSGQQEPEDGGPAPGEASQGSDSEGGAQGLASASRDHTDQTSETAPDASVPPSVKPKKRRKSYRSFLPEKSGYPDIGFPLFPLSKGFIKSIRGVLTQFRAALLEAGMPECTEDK
UniProt P62253, sequence (whole entry, looked up): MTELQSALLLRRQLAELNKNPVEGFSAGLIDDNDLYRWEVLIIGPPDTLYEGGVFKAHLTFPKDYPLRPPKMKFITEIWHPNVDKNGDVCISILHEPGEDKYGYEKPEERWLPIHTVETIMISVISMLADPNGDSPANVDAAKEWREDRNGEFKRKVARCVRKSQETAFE

Block 1
Target: RNA binding protein fox-1 homolog 2, RRM domain, GST-SBP tag (RBFOX2, Homo sapiens, UniProt O43251-10, residues 100-194)
Method: RNA Bind-n-Seq
Molecule type: RNA
Sample: in vitro
Concentration: 365 nM
Notes: natural RNA segment, single round, ends assumed
Relative to: no-protein control
Direction: higher = stronger binding
Constant ends, left off below: GGGAGUUCUACAGUCCGACGAUC … UGGAAUUCUCGGGUGCCAA
Construct (chain): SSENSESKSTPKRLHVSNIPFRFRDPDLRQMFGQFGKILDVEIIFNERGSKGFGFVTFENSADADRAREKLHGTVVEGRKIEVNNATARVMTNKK
Oligonucleotide | RBNS enrichment (R)
GUUUUCUUCACUAACAUUUAUUACCCUAGAUUAUUCAUGGGAAUCUGGAACUGUUGGACACAGUUGAAAGUGUGGUGGGGAAACCAUACAAUUGUUUUUACAGUUUUAGC | 0.55
AGGUAGUGUGUAGCUCCAUUUCAGAAUGUUAACCUCCAGUGAAGAGCUAAUGACUGGUUAGAAGAUUGACAAACUAACCAAAAUUUUACACACUCCGGUUAUGUGUGUGA | 2.39
UUUAUGAUCAGGGUGGAAUGUGCCUCCUGAUGUAUGAGCCUCAUUAAUUUCCAUUUUAAGGUGGUGUCUGUGCAGCCGUGUCCCUGGUUCUGGCUGUUUUCUGUCUGGUG | 0.443
CUAGCAUUCCAUACAAAAUUGUUUCCUAUAAGCAUUCCUUUUAUUCUCUAUUCUAUCCUGGGUCUGCCUCAACCGUGAGAUAGGAGAGUCUCUGGUACUAGCUGCUGUAG | 0.806
UUAAAAACCCCACCAUUUGGAGAAUUACAAGGGUUUUGUCCUGAAUUGUAGUGUUGGCAAGCCCAAGCCACUCGUGCUAACUGCUUUUUGUCUCGGUUGCUAUUCCAAGA | 0.525
UGCCUCUCUGUGGCCGUGGGUUCACGUGGCCUCUGCGGUGAGUCUCCAAGUUUCUGCCUAGGCGCCUGUGCGUUUCCUUUCUGUGACGGGAUUAGCUUAGACAUCCUUGC | 0.254
CCUCUGUAGGAACUUAGGUUAAUAGUAAUAUUAACAACAAGACAUGCUAAGACUCUUUGGUAAUCUAGAAGAGCUUCUAGUGAGAACCUGAUGGUAGGUCGUGGGGCCUG | 0.311
UAAAAAUAAAUGUGUAUGUGUGUACAUAUAUAUACACACACAUACACAUAUAUUAUGCAUGUGGUGAAAAGAAUUGGCUAGAUAGGGGAUUUUUCUGAACACUGCAAAAA | 6.11

Block 2
Molecule: B1 (RNF10 RING domain)
Method: yeast two-hybrid
Sample: yeast
Notes: mostly zero background
Relative to: not given
Direction: higher = stronger interaction
B1: RNF10 RING domain (UniProt Q8N5U6); chain VRICSHEVPSCPICLYPPTAAKITRCGHIFCWACILHYLSLSEKTWSKCPICYSSVHKKDLKS
target | lacZ reporter activity
UBE2J2 UBC core domain (UniProt Q8N2K1) | 0
BIRC6 UBC core domain (UniProt Q9NR09) | 0
UBE2R2 UBC core domain (UniProt Q712K3) | 0
UBE2O UBC core domain (UniProt Q9C0C9) | 0
UBE2E3 UBC core domain (UniProt Q969T4) | 0
UBE2C UBC core domain (UniProt O00762) | 0
UBE2S UBC core domain (UniProt Q16763) | 0
UBE2G1 UBC core domain (UniProt P62253) | 0

Block 3
Substitution: R88V
Target: ABI1, truncated, D143A, DHFR fusion (Arabidopsis thaliana)
Method: DHFR PCA, deep sequencing
Sample: yeast
Notes: methotrexate growth selection, single substitutions
Relative to: wild-type fitted maximum
Direction: higher = stronger binding
Starting sequence: PYL1, truncated, DHFR fusion (Arabidopsis thaliana); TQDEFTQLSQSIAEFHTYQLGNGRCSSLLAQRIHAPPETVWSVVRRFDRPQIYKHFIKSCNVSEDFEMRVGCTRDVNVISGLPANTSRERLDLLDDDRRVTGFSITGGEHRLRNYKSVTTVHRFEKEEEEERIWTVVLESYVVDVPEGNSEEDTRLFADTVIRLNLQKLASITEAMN; partner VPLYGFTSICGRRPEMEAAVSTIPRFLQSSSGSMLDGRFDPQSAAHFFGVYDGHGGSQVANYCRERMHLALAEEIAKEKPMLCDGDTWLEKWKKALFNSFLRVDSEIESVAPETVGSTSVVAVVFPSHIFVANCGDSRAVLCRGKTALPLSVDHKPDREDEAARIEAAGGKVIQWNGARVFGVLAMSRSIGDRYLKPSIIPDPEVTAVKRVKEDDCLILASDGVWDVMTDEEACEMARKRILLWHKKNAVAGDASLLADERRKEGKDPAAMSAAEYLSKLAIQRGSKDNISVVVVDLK
with | relative binding score
(+)-ABA 0 µM | 32.2%
(+)-ABA 58 µM | 84.3%
(+)-ABA 0.11 µM | 42.6%
(+)-ABA 0.032 µM | 32.8%
(+)-ABA 200 µM | 105%
(+)-ABA 4.8 µM | 76.6%

Other studies, line by line
Compound | target | read-out | mode | concentration | relative to | measurement | result
Cc1cncc2cccc(S(=O)(=O)N3CCCN(C(=O)CN)C[C@@H]3C)c12 | Epidermal growth factor receptor (EGFR, Homo sapiens, UniProt P00533) | enzyme activity | inhibitor | 0.5 µM | control | remaining activity | 98.7%

Some of these lines once more (block 3):
with | relative binding score
(+)-ABA 0 µM | 32.2%
(+)-ABA 58 µM | 84.3%
(+)-ABA 0.11 µM | 42.6%
(+)-ABA 0.032 µM | 32.8%
